Assay results from different studies.
Parts stem from different laboratories: compare values within a part only. Positions count from the first letter of the parent shown.

Block 1 — method: protein-binding microarray; form: double-stranded DNA, one strand shown; medium: in vitro; tested at: 0.8 µM; notes: whole 60-bp probe, no competitor; direction: higher = stronger binding; shared flanks, not repeated: … GTCTTGATTCGCTTGACGCTGCTG
Target: Centromere-binding protein 1, full length, N-terminal tag (CBF1, Saccharomyces cerevisiae, UniProt P17106, residues 1-351)
Chain of UniProt P17106 (whole entry, looked up): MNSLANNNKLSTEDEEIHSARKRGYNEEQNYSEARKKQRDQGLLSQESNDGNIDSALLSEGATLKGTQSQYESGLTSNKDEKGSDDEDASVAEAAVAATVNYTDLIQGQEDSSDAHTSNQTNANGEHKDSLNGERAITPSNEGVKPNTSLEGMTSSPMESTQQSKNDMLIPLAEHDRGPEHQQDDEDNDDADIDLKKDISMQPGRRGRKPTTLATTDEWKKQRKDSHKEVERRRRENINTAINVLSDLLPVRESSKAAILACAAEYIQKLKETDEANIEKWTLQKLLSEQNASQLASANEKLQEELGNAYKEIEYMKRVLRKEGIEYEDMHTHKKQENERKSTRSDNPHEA
Strand | fluorescence intensity [a.u.]
GAATTGTTTTTTGATGTTACGTTCTGTATGATTTAG | 528
CTAACACTTCTTGAACACGTTTTACTAAATTGTTTC | 945
GAATTCTGGGGTTACCACGATTACCAGCGGATTTAG | 507
CTAACAACTTGTATGCACGATGTCGGATCAAAATTC | 538
CTACACAAGGAATAACACGTGACATTTTTCTTTTTC | 12400
CTATGTGAAAATGAACGTGACTTGAAACTTTGCTTC | 2160
CTATGCAATCGTCATCATATGAGAAATGGATATTTC | 548
GAAAAACGCGGTAGTAACGTGGGGTACTTTAAATAG | 596
CTATCAGGAAGAGGCCACATGCATTACAGAGAATTC | 563
GAATTGTACGCAGGTCCTGATGTACTGTATGATTAG | 523
CCTAACTACTATAGTCTGGTGATATAGCTTCGTACA | 545
GAACCTCGAATGTTGCACGCCCAGAGAACTTTATAG | 548
CTATTCGTGTAAAGTGATGTTGGGATTGTCCGATTC | 545
CCTAACTACTATAGGAGCACGTGATAGCTTCGTACA | 14900
CTATTTTATATTACTCATCAGTTGTGTGTGAAATTC | 607
CTATTTAAGTCTTGTCACATGACATAATAATAATTC | 9350
CTATCTATATTCACTCACGTTATGCGCCTGAATTTC | 741
GAACCTTTACGGGCGTGCATGATGTATCAGGAATAG | 577
CTATCTGCCACTGGTGGTGCTGATAGCGTCGACTTC | 476
CTAATATTATATTATCACATGCGGTGTGAGAAGTTC | 1480
CTACGCTGTTACCTCCAGGTGATTGCTGTCTTTTTC | 545
CTACCCGGCCTGCGCTGCGTGCACCGACTGCGTTTC | 454
CTACCCGGTAATAGTCACGTGATAAAGGTGCATTTC | 36100
CTAAAAAGCTCACATGACACGCTTGTTTTGGAATTC | 2640
CTAGTTTCCATTTGCCACGTTGCTTTGCCTTCTTTC | 525

Block 2 — method: universal PBM; form: double-stranded DNA, one strand shown; medium: in vitro; tested at: 600 nM; direction: higher = stronger binding
Target: Sal-like protein 4, full length isoform A (SALL4, Homo sapiens, UniProt Q9UJQ4, residues 1-1053)
Chain of UniProt Q9UJQ4 (whole entry, looked up): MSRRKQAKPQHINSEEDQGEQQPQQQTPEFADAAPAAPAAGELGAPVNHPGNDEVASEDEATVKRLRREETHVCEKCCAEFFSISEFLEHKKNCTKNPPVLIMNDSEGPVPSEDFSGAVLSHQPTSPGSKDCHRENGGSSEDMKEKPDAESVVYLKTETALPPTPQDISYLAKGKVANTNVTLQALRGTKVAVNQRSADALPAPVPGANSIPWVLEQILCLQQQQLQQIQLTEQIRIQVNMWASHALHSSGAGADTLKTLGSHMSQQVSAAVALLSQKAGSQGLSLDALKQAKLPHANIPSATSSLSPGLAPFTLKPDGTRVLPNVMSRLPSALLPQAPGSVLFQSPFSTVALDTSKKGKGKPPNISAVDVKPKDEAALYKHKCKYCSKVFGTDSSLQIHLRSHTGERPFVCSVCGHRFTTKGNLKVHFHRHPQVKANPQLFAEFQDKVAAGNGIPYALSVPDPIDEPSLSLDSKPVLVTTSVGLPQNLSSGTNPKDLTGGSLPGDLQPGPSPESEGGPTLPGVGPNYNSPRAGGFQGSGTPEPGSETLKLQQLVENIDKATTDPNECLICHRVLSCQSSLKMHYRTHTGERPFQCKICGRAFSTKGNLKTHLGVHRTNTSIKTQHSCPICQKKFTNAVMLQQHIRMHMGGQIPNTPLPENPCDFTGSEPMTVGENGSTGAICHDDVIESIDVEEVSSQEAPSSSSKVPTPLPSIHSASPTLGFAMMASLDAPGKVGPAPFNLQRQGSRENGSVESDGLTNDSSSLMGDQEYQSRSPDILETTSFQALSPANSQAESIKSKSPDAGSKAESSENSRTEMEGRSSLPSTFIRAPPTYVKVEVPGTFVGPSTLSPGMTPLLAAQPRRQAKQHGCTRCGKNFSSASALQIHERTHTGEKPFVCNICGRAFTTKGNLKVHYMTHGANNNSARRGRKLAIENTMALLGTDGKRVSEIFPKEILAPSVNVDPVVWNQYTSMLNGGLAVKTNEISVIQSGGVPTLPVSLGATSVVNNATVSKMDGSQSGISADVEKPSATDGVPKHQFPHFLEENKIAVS
Notes: 8-mer, flanks averaged, mean of replicates
Strand | E-score
AGTCGGAA | -0.139
CGCGTGAC | -0.154
AATCAGCG | -0.156
AGAACGCA | -0.0273
ACTTATAA | 0.307
TATAGGAA | 0.292
AAGCCCGA | -0.165
AGAGCCAA | 0.102
CTTCGCGA | -0.15
CACAAGTG | -0.0655
CACTAGGG | -0.239
GTTGGTTA | 0.0439
AGCTCGCC | -0.29
GGGAACAC | -0.229
GCCGAGAC | -0.307
GGGTAGGA | -0.109
CGTACTGC | 0.0411
CCGATTCG | 0.0674
AATGATTG | 0.186
CCCAAAGC | -0.134
GAGCTACC | -0.082
CATACGGC | -0.0674
CTCTTATC | 0.123

Block 3 — target: CCNE2, cyclin fold, Cln2 fusion (human); method: yeast growth competition, sequencing; medium: yeast; notes: weak parent motif; relative to: not given; direction: higher = stronger binding
Parent: MICAL3 docking peptide (human); LQLRRQLSFSEDS; partner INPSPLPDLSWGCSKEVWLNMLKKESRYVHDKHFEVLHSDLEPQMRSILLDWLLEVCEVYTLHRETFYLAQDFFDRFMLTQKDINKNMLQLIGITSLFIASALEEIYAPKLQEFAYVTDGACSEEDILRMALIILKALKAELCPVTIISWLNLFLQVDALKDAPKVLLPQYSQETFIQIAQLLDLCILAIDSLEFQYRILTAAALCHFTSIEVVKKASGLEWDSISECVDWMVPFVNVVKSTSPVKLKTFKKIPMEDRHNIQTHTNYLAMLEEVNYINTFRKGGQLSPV
Substitution | normalised enrichment score
S10V | 0.367
R5H | 0.0428
S10D | 0.143
L3Y | 0.783
Q6L | 0.327
E11T | 0.496
E11S | 0.484
Q2A | 0.151
S10P | 0.364
R5D | -0.114
S10G | 0.616
R4M | -0.273
R5G | 0.0485
F9I | 0.181
R4D | -0.102
E11Q | 0.259
Q6G | -0.0835
S8G | 0.254
Q6T | 0.0112
E11M | 0.132
F9N | -0.0682
D12I | 0.892
Q2Y | 0.372
F9S | -0.255
Q2V | 0.544

Block 4 — method: protein-binding microarray; form: double-stranded DNA, one strand shown; medium: in vitro; tested at: 250 nM; notes: 60-bp whole probe; together with: salmon DNA 0.4 mg/ml; relative to: random background probes; direction: higher = stronger binding; shared flanks, not repeated: GCCTAGCAC … GTCTTGATTCGCTTGACGCTGCTG
Target: Interferon regulatory factor 5, full length, phosphomimetic (IRF5, Homo sapiens, UniProt Q13568-2, residues 1-514, K96S/S451D/S453D/S456D/S462D)
Strand | log fluorescence [z-score]
TTATGTTCCGGTTTCGGTTAGTGCTAG | 9.91
GTCGGTTTCGGTCTCGGGACGTGCTAG | 10.1
TCATAACTCATTTTCGTACTGTGCTAG | 2.31
TCACATTTTTTTTCATCACTGTGCTAG | 1.38
AACGATATCAGTCTCGAGACGTGCTAG | 1.61
GACGGTATCCTTATCCTGACGTGCTAG | -0.208
GACGATATCGGGTATCGAGGCGTGCTA | 2.19
GACGATATCAGTCTCCAGACGTGCTAG | 1.1
TTAGATCTCAGTTTCGAGTAGTGCTAG | 6.04
GACGATATCGAGTATCGAGACGTGCTA | 2.8
TTTCTCTCATTATGTGGGTTGTGCTAG | 6.54
TTAGATTTCAGTTTCCATTAGTGCTAG | 3.77
TTATGTTTCCTTCTCCTTTAGTGCTAG | 1.54
GACGGTTGCCTTTTCCTGACGTGCTAG | 0.139
GGGTGGGAGCCGAAGACGCCGTGCTAG | -1.26
GACGACCTCAGACTGGAGACGTGCTAG | -0.259
TATAGTTATTTTTATTAAAAGTGCTAG | 1.23
CACGGTATCCTACTGCTGACGTGCTAG | -0.172
ATAGGTATCCTTCTCCTTTAGTGCTAG | 0.394
TTAGGTTTAGACTATCGGTTAGTGCTA | 5.04
TTAAATCTCAGTATCGATTAGTGCTAG | 7
TCATTTTGGTTTCTGGTACTGTGCTAG | 4.65
TTAGGTTTCGACATTGGGTTAGTGCTA | 6.67

Block 5 — method: RNA Bind-n-Seq; form: RNA; medium: in vitro; tested at: 365 nM; relative to: no-protein control; direction: higher = stronger binding
Target: RNA binding protein fox-1 homolog 2, RRM domain, GST-SBP tag (RBFOX2, Homo sapiens, UniProt O43251-10, residues 100-194)
Notes: natural RNA segment, single round, ends assumed
Shared flanks, not repeated: GGGAGUUCUACAGUCCGACGAUC … UGGAAUUCUCGGGUGCCAA
Target sequence (chain): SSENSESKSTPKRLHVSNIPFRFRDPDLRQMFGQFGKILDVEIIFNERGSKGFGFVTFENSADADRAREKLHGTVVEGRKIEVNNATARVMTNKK
Strand | RBNS enrichment (R)
UGAUUCUUCUCGUUUGAAAGAUGAGCAGAUUAGAACGCAGAGAGUACAGAUUGUGGGAAGAAGCAGAAACACAAUUCAGAACACCGUCUUCUCCACCCACAGUCCAACUC | 0.271
UCCUUCUUCACUCAAAGGCUGCUUUGCUCUGAGUGGGGAAAGAGUGGGUGUUUUGUAGAAGCAUUGCCUUUCAUUGUUCUUUCUAUAUCUGUCCACAAUGCCUACUGUCU | 0.555
AAAUACUUGUGUUUCUAUUAAAUAUACACUACUAAAUACAUGUUAUGUGACUAGUAUUUAUCCUUUACUUCUGUGUUUUCUUAGGAUGUACACUUUUAGAGUUAUAGUGC | 0.352
GGCAUCUACAGGGUUACUGUUUGCAUUUUCUACCCACAAGCAGAAGGAGACAGUGACAAUGGGCAGUGGAUAGCCCUCACUCGUGAGUGUUUAAUGUUGCAGCAAACUCA | 0.493
AAAGUCAUGGGACCACUUCUAGAAAUCUUUCAGCUGUCAGGCCUGUCAGUCUCAUGACAGUUUGUUGGUUGUGCCAAACACUUUAUUUGGGAAAGGAAAGCCCAGAUUUG | 0.264
AACAAUUUCAACAAUGACACAAAAAUUCACAUGGAAAUGGGGAAGAUGGUCUGUUUUGACAGAAACUGACAGGAAUCAAAACAAUCGAAUUUUGAAUUGAGUGAAGUGCA | 0.573
UCUCUGUGGUCCCUUCCAAUGCUGUGGGUUUCCAACCAGGGGAAGGGUCCCUUUUGCAUUGCCAAGUGCCAUAACCAUGAGCACUACUCUACCAUGGUUCUGCCUCCUGG | 0.477
GUUUUCCAAGAGUGUACCAUUAACUUGAUUGUUGAUAAUAAAAAGAAAAAGCAAGUCUAAGCAAGUACCUCUCUGGACUUUCUCUUGAGCUUUCUUAUUUAAAUCAAUCU | 0.365
UGUGCCGUAGUCUACACAUUUUUAGGGGAUAUUUCACCAAAAUACUUGACAUGGUAACAUCACUAUUAUAUACUAGAAGCAAGAAUUUUACACUUAUGCUCUAAGUGAUC | 0.23
ACCCUAUCUGCUUGUCUCGUCCAGGAAGCGUUAGGGCUGAUGGGUGACUCAGCAAGGCAGUGUCAGAGCUGGGACUGGGCGUAGGCCUUUGUCCUCAUCCCCAGCACUGG | 0.229
AACACUAAAACGAUUUGAGUAGAGGCUGCUGGUCACCUUUUGUGACCUGAGGAAUCCCAGGCCUGUGAGAAAAGCAAAAAUUCACAUUGCAGCACAUGAUGCCAGAAAUA | 0.34
UUUAGAGUUUUUUUAAUUAACACUUGUGUUGCUAAAUUCUAUUUAUGUAAGUCUGCUAAAGUUUUUUAGCCCACUUAAAACUUAAGACAACCAUUUAAAAUAAUGGAUGG | 0.325

Block 6 — method: RNA Bind-n-Seq; form: RNA; medium: in vitro; tested at: 90 pmol; notes: 4-mer, random 30-nt RNA, single round; relative to: input library; direction: higher = stronger binding
Target: ATP-dependent RNA helicase DDX3X, helicase core (DDX3X, Homo sapiens, UniProt O00571, residues 132-607)
Chain of UniProt O00571 (132-607, looked up): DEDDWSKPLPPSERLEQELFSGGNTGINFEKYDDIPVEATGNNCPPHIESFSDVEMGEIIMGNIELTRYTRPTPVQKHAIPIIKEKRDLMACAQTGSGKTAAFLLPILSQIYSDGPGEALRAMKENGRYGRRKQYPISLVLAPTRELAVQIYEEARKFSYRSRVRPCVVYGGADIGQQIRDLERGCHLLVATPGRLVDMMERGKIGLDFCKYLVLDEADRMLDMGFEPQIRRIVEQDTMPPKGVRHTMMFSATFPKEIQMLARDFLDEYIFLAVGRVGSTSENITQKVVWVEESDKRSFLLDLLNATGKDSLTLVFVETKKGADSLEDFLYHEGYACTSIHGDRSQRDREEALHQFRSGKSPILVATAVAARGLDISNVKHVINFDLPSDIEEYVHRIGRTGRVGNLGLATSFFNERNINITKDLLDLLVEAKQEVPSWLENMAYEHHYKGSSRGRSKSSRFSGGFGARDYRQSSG
Together with: 3 µM iPr-DMDA-PatA, 2 mM ADP, 2 mM phosphate
Strand | 4-mer enrichment [fold]
CCGU | 0.784
AUCC | 1.11
AACA | 1.32
ACUU | 0.963
AAAA | 1.8
UUAC | 1.01
CCAU | 0.986
AUUG | 1.01
UAAU | 1.23
UUGC | 0.748
GCGA | 0.961
GAUU | 1.09
AUGU | 1.01
GACC | 1.1
CCCA | 1.31
AAUU | 1.31
UUUA | 1.21
AUAG | 1.2
CACC | 1.2
GUUA | 1.03
CACA | 1.15
UGUC | 0.861

A few entries again (block 3):
Substitution | normalised enrichment score
R5D | -0.114
E11M | 0.132
S8G | 0.254
Q2V | 0.544
L3Y | 0.783
R5G | 0.0485
Q2Y | 0.372
Q2A | 0.151
Q6G | -0.0835
E11Q | 0.259
D12I | 0.892
S10G | 0.616
S10D | 0.143
E11T | 0.496
